Results from different studies.
± gives the spread as reported.
CDK2: Cyclin-dependent kinase 2 (CDK2, Homo sapiens, UniProt P24941)
ESR1: Estrogen receptor (ESR1, Homo sapiens, UniProt P03372)
Sequence of UniProt P03372 (whole entry, looked up): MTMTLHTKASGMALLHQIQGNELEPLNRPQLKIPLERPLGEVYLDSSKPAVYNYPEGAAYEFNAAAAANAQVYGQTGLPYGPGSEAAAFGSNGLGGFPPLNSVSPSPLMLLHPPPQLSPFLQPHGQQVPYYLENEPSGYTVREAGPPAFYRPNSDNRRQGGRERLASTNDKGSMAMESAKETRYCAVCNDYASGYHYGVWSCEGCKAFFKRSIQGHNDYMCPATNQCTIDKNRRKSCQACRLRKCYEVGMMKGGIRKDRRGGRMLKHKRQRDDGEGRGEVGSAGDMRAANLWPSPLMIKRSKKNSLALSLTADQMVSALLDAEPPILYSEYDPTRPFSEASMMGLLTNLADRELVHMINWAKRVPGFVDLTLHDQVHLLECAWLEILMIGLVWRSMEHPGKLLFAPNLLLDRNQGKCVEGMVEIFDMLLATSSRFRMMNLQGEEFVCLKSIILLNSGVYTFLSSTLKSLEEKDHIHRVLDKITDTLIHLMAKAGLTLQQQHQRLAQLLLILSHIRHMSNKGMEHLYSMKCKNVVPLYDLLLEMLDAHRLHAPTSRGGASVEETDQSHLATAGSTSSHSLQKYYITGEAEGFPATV
DRD3: D(3) dopamine receptor (DRD3, Homo sapiens, UniProt P35462)
Sequence of UniProt P35462 (whole entry, looked up): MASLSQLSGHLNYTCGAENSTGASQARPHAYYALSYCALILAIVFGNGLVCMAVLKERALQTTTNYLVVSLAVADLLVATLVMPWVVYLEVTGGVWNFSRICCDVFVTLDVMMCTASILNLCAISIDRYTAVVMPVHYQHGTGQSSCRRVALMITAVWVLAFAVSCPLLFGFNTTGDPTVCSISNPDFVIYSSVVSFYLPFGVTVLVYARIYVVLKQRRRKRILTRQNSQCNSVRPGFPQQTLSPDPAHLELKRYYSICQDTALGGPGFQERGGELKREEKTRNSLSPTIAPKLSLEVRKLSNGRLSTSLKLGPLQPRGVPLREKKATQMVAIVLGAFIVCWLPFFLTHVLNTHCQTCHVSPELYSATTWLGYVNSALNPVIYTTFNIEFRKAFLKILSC
CDK2 with cyclin A: Cyclin-dependent kinase 2, with cyclin A (CDK2, Homo sapiens, UniProt P24941)
SLC10A1: Hepatic sodium/bile acid cotransporter (SLC10A1, Homo sapiens, UniProt Q14973)
Sequence of UniProt Q14973 (whole entry, looked up): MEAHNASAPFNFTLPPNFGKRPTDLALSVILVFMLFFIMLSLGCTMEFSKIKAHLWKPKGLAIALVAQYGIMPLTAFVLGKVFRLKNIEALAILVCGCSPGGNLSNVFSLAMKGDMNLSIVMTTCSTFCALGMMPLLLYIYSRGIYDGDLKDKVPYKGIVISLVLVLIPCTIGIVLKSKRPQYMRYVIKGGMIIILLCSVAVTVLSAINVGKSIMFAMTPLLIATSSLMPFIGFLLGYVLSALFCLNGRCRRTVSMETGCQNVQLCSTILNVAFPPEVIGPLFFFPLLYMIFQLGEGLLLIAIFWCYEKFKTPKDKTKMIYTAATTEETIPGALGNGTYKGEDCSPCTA
Sequence of UniProt Q68D91 (whole entry, looked up): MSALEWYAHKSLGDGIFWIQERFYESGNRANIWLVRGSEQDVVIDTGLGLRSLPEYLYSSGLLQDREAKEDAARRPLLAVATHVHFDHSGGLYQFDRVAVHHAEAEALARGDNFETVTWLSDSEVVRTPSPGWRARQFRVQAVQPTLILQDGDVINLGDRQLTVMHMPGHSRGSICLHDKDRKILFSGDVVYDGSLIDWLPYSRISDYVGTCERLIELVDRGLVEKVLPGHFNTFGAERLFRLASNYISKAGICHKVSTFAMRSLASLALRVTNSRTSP

`COc1ccc2c(C)nc(Nc3nc(C)cc(O)n3)nc2c1` has a Kd of > 100 µM (CDK2; binding).
`COc1ccc(-c2coc3cc(O)ccc3c2=O)cc1` gave an EC50 of 1.17 µM (ESR1; array formation, agonist; ERα-GFP PRL-HeLa; 1 h).
With `Cn1cc(-c2ccc(S(=O)(=O)n3ccc(/C=C/C(=O)Nc4ccccc4N)c3)cc2)cn1` the Kd was > 30.2 µM (MBLAC2 (Homo sapiens, UniProt Q68D91); inhibitor, competition pulldown; SW620 and MV4-11 lysate; 1 h).
The EC50 of `COc1ccc(-c2oc3cc(O)cc(O)c3c(=O)c2O)cc1` is reported as 1.17 µM (ESR1; array formation, agonist; ERα-GFP PRL-HeLa; 1 h).
For `Cc1[nH]c2cccc(C(=O)N3CCC(F)(F)C3)c2c1S(=O)(=O)Nc1ccc(C(F)(F)F)c(Cl)c1`, the IC50 was > 100 µM (DRD3; Go activation, antagonist, BRET; added: dopamine).
For `Cc1nc2ncnn2c(O)c1NS(=O)(=O)c1ccc(Br)cc1`, the Kd was > 100 µM (CDK2 with cyclin A).
With `Cc1ccc(NS(=O)(=O)c2c(C)[nH]c(C)c2C(=O)NC2CCCC2)cc1Cl` the IC50 was > 100 µM (DRD3; Go activation, antagonist, BRET; added: dopamine).
For `COc1cccc(OC)c1NS(=O)(=O)c1ccc(N/C=C2\C(=O)Nc3ccc4ncsc4c32)cc1`, the Kd was 0.333 µM (CDK2 with cyclin A; bio-layer interferometry (Octet RED); 298 K, CDK2-cyclin A complex, averaged).
For `CN(C)C(=O)c1c[nH]cc1S(=O)(=O)Nc1ccc(C(F)(F)F)c(Cl)c1`, the IC50 was > 100 µM (DRD3; β-arrestin recruitment, antagonist, PathHunter; added: dopamine EC80).
For `COc1cccc(NC(=O)CSc2nnnn2C)c1`, the Kd was > 100 µM (CDK2; binding).
`O=C(O)c1cn(C2CC2)c2cc(N3CCNCC3)c(F)cc2c1=O` gave a Ki of 526 ± 399 µM (SLC10A1; taurocholate uptake, inhibitor; NTCP-expressing HEK293; added: 10 µM taurocholate).
`COc1ccc(-c2cc(=O)c3c(O)cc(OC)cc3o2)cc1` gave an EC50 of 0.987 µM (ESR1; array formation, agonist; ERα-GFP PRL-HeLa; 1 h).
`CCc1ccccc1NC(=O)CSc1nnc(-c2cccc(OC)c2)n1C` gave a Kd of > 100 µM (CDK2; binding).
With `CC(C)[C@H]1CC[C@H](C(=O)N[C@H](Cc2ccccc2)C(=O)O)CC1` the Ki was 111 ± 7 µM (SLC10A1; taurocholate uptake, inhibitor; NTCP-expressing HEK293; added: 10 µM taurocholate).
With `Cc1[nH]c(C)c(S(=O)(=O)Nc2ccc(C(F)(F)F)c(Cl)c2)c1C(=O)N1CCc2ccccc21` the IC50 was > 100 µM (DRD3; β-arrestin recruitment, antagonist, PathHunter; added: dopamine EC80).
`CC(C)NCC(O)COc1ccc(CC(N)=O)cc1` (centres unmarked) has a Ki of 167 ± 55 µM (SLC10A1; taurocholate uptake, inhibitor; NTCP-expressing HEK293; added: 10 µM taurocholate).
`Cc1[nH]c(C)c(S(=O)(=O)Nc2ccnc3c(C(F)(F)F)cccc23)c1C(=O)N1CCC(F)(F)C1` gave an IC50 of > 100 µM (DRD3; Go activation, antagonist, BRET; added: dopamine).
With `CCN(CC)CCNC(=O)c1ccc(N)cc1` the Ki was 384 ± 185 µM (SLC10A1; taurocholate uptake, inhibitor; NTCP-expressing HEK293; added: 10 µM taurocholate).
`Cc1[nH]c(C)c(S(=O)(=O)Nc2ccc(C(C)(C)O)c(Cl)c2)c1C(=O)N1CCC(F)(F)C1` gave an IC50 of > 100 µM (DRD3; β-arrestin recruitment, antagonist, PathHunter; added: dopamine EC80).
For `COc1ccccc1NC(=O)CSc1nnc(-c2ccc([N+](=O)[O-])cc2)n1-c1ccccc1`, the Kd was > 100 µM (CDK2 with cyclin A).
